Measured values of several laboratories.
Lines come from different studies, so protocols differ.
Target: Hormonally up-regulated neu tumor-associated kinase (HUNK, Homo sapiens, UniProt P57058)

The inhibition of `CN1CCN(Cc2ccc(-c3ccc(CO[C@H]4CCC[C@@H]4NC(=O)c4cc(-c5cnn(C)c5)cnc4N)cc3)cc2)CC1` is reported as -19% (enzyme activity, inhibitor; 0.1 µM).
The remaining binding of `Cc1ccc(-c2c(/C=C(\C#N)C(=O)NC(C)C)n(CCCO)c3ncnc(N)c23)cc1` is reported as 100% (cell-free assay, competition with immobilised ligand; 1 µM).
The inhibition of `CCn1cc(C(=O)O)c(=O)c2c(N)c(F)c(NC3CCCCC3)cc21` is reported as 6.3% (kinase activity; 0.1 µM, together with: ATP at Km).
The inhibition of `C=CC(=O)N1Cc2nc(-c3cc(-c4cc(Cl)cnc4Cl)c(F)cc3F)n(-c3ccncn3)c2C1` is reported as -1% (cell-free assay, inhibitor; 1 µM).
For `COc1cc(Nc2nc(C)cc(-c3cnn4nc(OC)ccc34)n2)cc(C(F)(F)F)c1`, the remaining activity was 99% (inhibitor; 1 µM; baseline: control).
`C=CC(=O)N1CCCC(n2c(=O)c3ncccc3n(Cc3ccc(Oc4ccccc4)cc3)c2=O)C1` (stereo not drawn) has a remaining binding of 100% (cell-free assay, competition with immobilised ligand; 1 µM).
`CNC(=O)C1CCN(c2cc(C)c(F)cc2NC(=O)c2ccc(-c3cc(O)ccc3C)c(C)c2)CC1` gave a remaining binding of 80% (binding, competition with immobilised ligand; 1 µM).
`CC(C)=CC1OC(C)(C)C2C=C3C(=O)C(Cl)=CC(O)C3C3C(O)C4OC4C(=O)C132` (stereo not drawn) has a remaining binding of 82% (cell-free assay, competition with immobilised ligand; 10 µM).
For `COc1c(Cl)cccc1Nc1c(-c2ccncc2C#C[C@@]2(C)CCCN2C(=O)/C=C/CN(C)C)[nH]c2c1C(=O)NCC2`, the remaining binding was 91% (binding, competition with immobilised ligand; 3 µM).
`Cc1cnc2nc1Nc1cccc(c1)COC/C=C/COCc1cc(ccc1OCCN1CCOCC1)N2` gave a remaining binding of 84% (binding; 0.1 µM).
`Nc1ncc2c(n1)-c1c([nH]c3ccc(C4=CCOCC4)cc13)CCC2` gave a remaining binding of 61% (binding, competition with immobilised ligand; 1 µM).
`COc1cc(Nc2nccc(-c3cnn4nc(OC)ccc34)n2)cc(C(F)(F)F)c1` has a remaining binding of 100% (binding, competition with immobilised ligand; 1 µM).
`CNC1C[S+]2CC[S+]3CC[S+](C1)[Ru-4]321([N]=C=S)[n]2c3ccc(OC)cc3c3c4c(c5cc(F)c[n+]1c5c32)C(=O)NC4=O` (stereo not drawn) gave a remaining binding of 85% (KinomeScan; 0.1 µM; baseline: untreated).
The remaining binding of `C=CC(=O)N1CCc2ccc(-n3c(=O)ccc4cnc5ccc(-c6cnn(C)c6)cc5c43)cc21` is reported as 72% (KINOMEscan; 1 µM; baseline: DMSO control).
With `CCN1CCN(Cc2ccc(C(=O)Nc3ccc(C)c(NCc4cnc5[nH]ccc5c4OC)c3)cc2C(F)(F)F)CC1` the remaining binding was 100% (binding, competition with immobilised ligand; 1 µM).
